Published values pooled from the literature.
A part holds a random share of what one study measured. Changes are numbered by the printed parent chain.
Sequence of UniProt Q9H3Y6 (whole entry, looked up): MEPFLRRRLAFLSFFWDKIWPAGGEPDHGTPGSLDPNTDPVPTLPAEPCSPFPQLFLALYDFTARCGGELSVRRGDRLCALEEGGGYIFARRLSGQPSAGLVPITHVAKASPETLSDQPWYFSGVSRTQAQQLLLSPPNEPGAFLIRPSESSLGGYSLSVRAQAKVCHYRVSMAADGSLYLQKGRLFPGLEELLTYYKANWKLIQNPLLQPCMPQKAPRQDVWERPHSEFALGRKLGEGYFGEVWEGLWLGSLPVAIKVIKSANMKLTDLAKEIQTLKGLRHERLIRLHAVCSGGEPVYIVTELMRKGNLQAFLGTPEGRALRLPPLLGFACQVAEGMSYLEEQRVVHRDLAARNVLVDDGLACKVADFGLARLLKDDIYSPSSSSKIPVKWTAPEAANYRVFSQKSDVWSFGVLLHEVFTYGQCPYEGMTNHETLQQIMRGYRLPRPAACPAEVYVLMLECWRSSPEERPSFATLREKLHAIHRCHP
Sequence of UniProt Q00532 (whole entry, looked up): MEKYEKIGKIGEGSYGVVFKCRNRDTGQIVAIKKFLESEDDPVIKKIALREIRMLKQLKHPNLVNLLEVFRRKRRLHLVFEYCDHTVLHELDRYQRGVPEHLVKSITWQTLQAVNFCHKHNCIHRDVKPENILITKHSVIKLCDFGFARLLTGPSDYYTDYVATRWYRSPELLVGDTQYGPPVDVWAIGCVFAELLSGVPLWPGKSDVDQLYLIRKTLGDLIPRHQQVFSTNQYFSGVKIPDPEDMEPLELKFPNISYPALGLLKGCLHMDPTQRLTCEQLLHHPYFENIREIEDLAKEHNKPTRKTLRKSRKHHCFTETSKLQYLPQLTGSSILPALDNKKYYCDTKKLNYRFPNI

Sample 1 — observed: cell-free assay; technique: competition with immobilised ligand; tested at: 1 µM
Compound: COc1ccc2cc(OCC3(C(=O)O)CN(C(=O)c4ccc(F)cc4)C3)ccc2c1
| target | remaining binding [%] |
| --- | --- |
| SRMS (Homo sapiens, UniProt Q9H3Y6) | 100 |
| Tyrosine-protein kinase ABL1, non-phosphorylated (ABL1, Homo sapiens, UniProt P00519, H396P) | 74 |
| CDKL1 (Homo sapiens, UniProt Q00532) | 100 |

Sample 2 — target: CCND1, cyclin fold, Cln2 fusion (human); technique: yeast growth competition, sequencing; medium: yeast; setting: weak parent motif; baseline: not given; direction: higher = stronger binding
Parent: E2F1 docking peptide (human); PPVKRRLDLETDH; partner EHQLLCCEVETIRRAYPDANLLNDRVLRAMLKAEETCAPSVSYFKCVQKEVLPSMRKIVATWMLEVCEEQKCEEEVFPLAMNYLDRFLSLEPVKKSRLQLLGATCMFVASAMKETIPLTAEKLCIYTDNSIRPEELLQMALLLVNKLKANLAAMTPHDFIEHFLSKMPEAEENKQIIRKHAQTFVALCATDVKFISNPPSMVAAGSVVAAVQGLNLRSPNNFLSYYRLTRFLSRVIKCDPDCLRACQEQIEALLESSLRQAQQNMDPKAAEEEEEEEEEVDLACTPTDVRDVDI
| Change | normalised enrichment score |
| --- | --- |
| R5S | -0.492 |
| R6D | -0.291 |
| K4S | 0.735 |
| D8A | -0.00186 |
| D12Y | 0.66 |
| P1G | 0.659 |
| R5V | -0.44 |
| E10R | -0.165 |

Sample 3 — technique: RNA Bind-n-Seq; molecule type: RNA; medium: in vitro; tested at: 15 pmol; setting: 4-mer, random 30-nt RNA, single round; together with: 3 µM DMDA-PatA, 2 mM AMP-PNP; baseline: input library; direction: higher = stronger binding
Target: Eukaryotic initiation factor 4A-I (EIF4A1, Homo sapiens, UniProt P60842, residues 1-406, full length assumed)
Sequence of UniProt P60842 (whole entry, looked up): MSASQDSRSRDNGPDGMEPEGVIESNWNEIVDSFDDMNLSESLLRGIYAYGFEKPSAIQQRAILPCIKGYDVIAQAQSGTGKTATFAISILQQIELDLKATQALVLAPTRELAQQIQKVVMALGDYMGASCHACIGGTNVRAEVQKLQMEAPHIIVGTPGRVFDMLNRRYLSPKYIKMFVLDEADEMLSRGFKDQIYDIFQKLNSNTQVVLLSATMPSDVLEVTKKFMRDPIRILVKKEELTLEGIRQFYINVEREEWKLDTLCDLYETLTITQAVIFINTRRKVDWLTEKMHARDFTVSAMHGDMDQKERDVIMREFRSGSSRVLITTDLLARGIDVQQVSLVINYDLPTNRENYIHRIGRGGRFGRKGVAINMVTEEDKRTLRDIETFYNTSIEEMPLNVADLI
| Strand | 4-mer enrichment |
| --- | --- |
| UCCA | 0.394 fold |
| UGAC | 0.61 fold |
| UCUU | 0.954 fold |
| UCGU | 1.18 fold |
| GUUG | 1.43 fold |
| CGAG | 1.26 fold |
| ACGG | 0.787 fold |
| GCAG | 0.751 fold |

Single results of other studies
| SMILES | medium | quantity | value |
| --- | --- | --- | --- |
| CCOC(=O)[C@@H]1CSCC(=O)N[C@H](CC)C(=O)N(C)[C@@H](C)C(=O)N[C@H](CC(C)C)C(=O)N2CCC[C@H]2C(=O)N(CC)CC(=O)N[C@@H](CC(C)C)C(=O)N(C)[C@@H](C)C(=O)N[C@@H](CC(C)C)C(=O)N1C | hydrocarbon/water | logD | -0.348 |
